# Results of several laboratories.
# Each numbered part is a random draw from the data of one study; scales do not carry over between parts. Positions count from the first letter of the parent shown.

# Sample 1 — method: RNA Bind-n-Seq; form: RNA; sample: in vitro; tested at: 365 nM; baseline: no-protein control; reading: higher = stronger binding
# Target: RNA binding protein fox-1 homolog 2, RRM domain, GST-SBP tag (RBFOX2, Homo sapiens, UniProt O43251-10, residues 100-194)
# Setting: natural RNA segment, single round, ends assumed
# All sequences stand within: GGGAGUUCUACAGUCCGACGAUC … UGGAAUUCUCGGGUGCCAA
# Construct (chain): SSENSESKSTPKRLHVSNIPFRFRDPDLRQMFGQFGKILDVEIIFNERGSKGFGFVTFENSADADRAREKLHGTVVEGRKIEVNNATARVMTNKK
Strand,RBNS enrichment (R)
AGCCUUAUUUGAAUGGAUCUUUGAGUUGAGAUCUUCACACUGUCAGUGAGCCCUUGGCUCAGCCCUUGUCACCUGUUUGUAUGGGGACCAUGUUUCCCAAAGCUCAGGUU,0.344
UCAGGGAUUUGUUGGCUAAGGUUUCUCUGUGCAUAUAUAUAUAUAUACAUAUGUAUAUAUAUUUAAAUACACAUAUAUAUUGUACAGAAUAAAAAUGUUUUAUUGAAUAC,1.47
UCUAAUUAAUAAUUCAAUUUUGAAAAUUCUCAAAAAAAUUUGAGGAUUUAAGCCUAGGGAUUUUAUUUUUAUAAAUACCAAAUCAUCAUUAGACUAAUCACUGGUGGAAA,0.668
GCAUUUGCAUAGCAGGGAUUGUGCCUGUAUCUACUGUGUCCAUUUUGUUUUUUCGGAUGUUUUCUGGUUUUGUUUCCUUGGAAAUAAAUUAAUAUAUUGUUUUCCACCUU,29.4
GAUGCAGAACGCCAGAUUUUUGAAUCUCAAGUAACUUUCUGUGGUGCUGGACAAAUUGACUUAAUUCUGUGCAGGCAAACACUUUGAAUCAUAAGGAUUUUUAUUGCCGC,0.522
AGGGAAGCCUGGAGCCGCACCCGACUCAGCCACUCUGCGUCACAUUCGUCCUGUACCUAGGACCGGAGGAAAGACGUGACUGCUCUAACCGGACCUCUGACUACCGGUGG,0.282
CAUGAGGUGAGGAGGCUGGCCCAGAAGGAAGGGGACGUUAGGUGGUGAAGCAGGCUCCCCUGGGCCUCUGAGGGCCAGCAGUCCCAACCAUUUGCCUCUUCGUUUUGACC,0.61
GAGUACUUCGGCAAAUUCACUUUUUGUCUCACCUUCAUCAUAUGGCUCAGUGGUUAAGAGUACCUGUUGCUGUUGCAGAGGACCUGGAUUGGAUUCCCAGCACCCACUCA,0.448

# Sample 2 — method: DHFR PCA, deep sequencing; sample: yeast; together with: (+)-ABA 710 µM; baseline: wild-type fitted maximum; reading: higher = stronger binding
# Target: ABI1, truncated, D143A, DHFR fusion (Arabidopsis thaliana)
# Setting: methotrexate growth selection, single substitutions
# Starting sequence: PYL1, truncated, DHFR fusion (Arabidopsis thaliana); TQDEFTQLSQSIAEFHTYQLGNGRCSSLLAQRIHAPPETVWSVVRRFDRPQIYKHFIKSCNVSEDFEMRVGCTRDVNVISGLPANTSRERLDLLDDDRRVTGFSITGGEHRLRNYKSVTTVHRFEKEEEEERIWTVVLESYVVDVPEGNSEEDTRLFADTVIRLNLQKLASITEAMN; partner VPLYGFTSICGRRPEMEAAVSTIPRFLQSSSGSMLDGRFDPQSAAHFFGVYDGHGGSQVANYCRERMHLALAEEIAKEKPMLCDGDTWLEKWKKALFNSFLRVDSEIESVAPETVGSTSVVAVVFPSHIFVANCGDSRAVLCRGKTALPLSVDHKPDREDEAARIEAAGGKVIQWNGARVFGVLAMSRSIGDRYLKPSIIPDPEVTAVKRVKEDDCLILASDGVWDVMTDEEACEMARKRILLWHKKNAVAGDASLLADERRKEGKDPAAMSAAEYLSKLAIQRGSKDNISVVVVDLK
Variant,relative binding score
T154G,43.2%
V44I,101%
D95Q,90.7%
W41N,-19.2%
Q31G,66%
E128W,104%
A84H,51.4%
V121Q,-2.74%
R132D,118%
N114D,88.7%
G23N,104%
L93M,87.2%
C25N,43%
P146Q,64.4%
Q167I,95.9%
E130P,114%

# Sample 3 — target: CCNB3, cyclin fold, Cln2 fusion (human); method: yeast growth competition, sequencing; sample: yeast; setting: weak parent motif; baseline: not given; reading: higher = stronger binding
# Starting sequence: E2F1 docking peptide (human); PPVKRRLDLETDH
Variant,normalised enrichment score
QPVKRRLDLETDH [P1Q],0.395
PPVKRRLDLETSH [D12S],0.47
PPVKRRLDLETDK [H13K],0.712
PPVKRRQDLETDH [L7Q],0.191
PPVKRRPDLETDH [L7P],0.26
PPVKQRLDLETDH [R5Q],0.348
PPAKRRLDLETDH [V3A],0.719
PPKKRRLDLETDH [V3K],0.0882
VPVKRRLDLETDH [P1V],0.424
PPVKRRLDLETDQ [H13Q],0.385
PPVKRRLDLETDN [H13N],0.223
PPVKRRLHLETDH [D8H],-0.178
PPNKRRLDLETDH [V3N],0.542
PPVKRRMDLETDH [L7M],0.223
PSVKRRLDLETDH [P2S],0.248
PPVKGRLDLETDH [R5G],-0.112

# Sample 4 — method: EMSA with sequencing; form: double-stranded DNA, one strand shown; sample: in vitro; tested at: 10 and 20 nM; baseline: negative control set to 0; reading: higher = stronger binding
# Target: Hepatocyte nuclear factor 3-alpha (Foxa1, Mus musculus, UniProt P35582, residues 1-468, full length assumed)
# Chain of UniProt P35582 (whole entry, looked up): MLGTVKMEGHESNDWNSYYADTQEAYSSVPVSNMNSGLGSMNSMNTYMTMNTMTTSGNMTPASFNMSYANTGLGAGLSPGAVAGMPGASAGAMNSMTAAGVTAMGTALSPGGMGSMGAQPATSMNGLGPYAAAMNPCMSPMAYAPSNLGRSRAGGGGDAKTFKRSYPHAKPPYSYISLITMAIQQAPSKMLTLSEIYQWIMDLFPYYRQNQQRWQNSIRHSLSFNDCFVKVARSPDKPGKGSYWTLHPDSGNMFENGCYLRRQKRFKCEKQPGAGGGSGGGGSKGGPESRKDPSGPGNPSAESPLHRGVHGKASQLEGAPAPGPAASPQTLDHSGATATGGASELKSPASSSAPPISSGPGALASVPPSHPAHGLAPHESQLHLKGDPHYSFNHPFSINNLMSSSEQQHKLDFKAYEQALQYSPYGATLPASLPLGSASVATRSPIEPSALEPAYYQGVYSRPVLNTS
# Setting: whole designed probe, mean of two concentrations, ends assumed
Strand,normalised bound fraction
GTGAGCGGTGCCCATTGATGGGGAACTCCTGGCAGCACAAACGACTGAATAACAATTAAACAAAACAGGACAGTCTCCGTGTTTCAAAATGCGCATTTAAACCTAAAAGAAACACGGTGAGATTACTTTCTGAGCCTGGCCTTCCCTGGGTGCACAGTGAGCCACTTCTGAAAGCGTATGGGCACACCCGCTACAGAAACCAGCTTACACTGGCTCGGTTTTCACTGGGATCGTGGGGAC,0.0273 ratio
GTGAGCGGTGCCCATTGATGGGGAACTCTGGGTCATTTCCTTTTCTGGATTTAACTATTCAAAAGTCGGGGCCAGAGATACAGGAAAGTAGAGGCAGAGATCTTATTTATCGAAGTGTAAGATGGCATAGAAATTATCCTTAATCACTACTCCAGTTAGACCTTGTTCAGTCTGATGTTAGTGGTCTTTGCAGAGGATACTATATACAGTTTCCTCAAATTTCACTGGGATCGTGGGGAC,-0.0202 ratio
GTGAGCGGTGCCCATTGATGGGGAACGATATTTGCAATCAATCTACTAGTTAACTATAAATGGAACAATGTACTTTCTTCCTTTCTCCAAACTGGAGAAGAGACTTTTAGAAGAATCTGAGTAATCTGGAAAACTTAGTCTTATCTTACAAGTCAAGGAAGCAGTTATTAAGAACATATGGATAAGCATGAAATCAAATCTTATTCTCTGCAAAGGAGCTTTCACTGGGATCGTGGGGAC,-0.0351 ratio
GTGAGCGGTGCCCATTGATGGGGAACATCTTCCCCCTCTTCCTTGCCCCACCAGCTCACCTACGGGGGTTATTTGCAGATAGGAAAATAAATAAAGCCGGCATTCGTTAACCCTCTTCACGCGCATACTGCTGTTTGCTCTGCATCTAACATGGTCCTTACGCGAGGCGTGGCTCCGGGAGAGCAAAGCACCGTGTCAGGCGCATGATCCGGGCTCGCCTTTCACTGGGATCGTGGGGAC,0.35 ratio
